# Earlier results that unrelated publications cite.
# Each numbered part shows a few of the values that one paper quotes. ± marks the error that the study gave.
# UniProt Q63273, sequence (whole entry, looked up): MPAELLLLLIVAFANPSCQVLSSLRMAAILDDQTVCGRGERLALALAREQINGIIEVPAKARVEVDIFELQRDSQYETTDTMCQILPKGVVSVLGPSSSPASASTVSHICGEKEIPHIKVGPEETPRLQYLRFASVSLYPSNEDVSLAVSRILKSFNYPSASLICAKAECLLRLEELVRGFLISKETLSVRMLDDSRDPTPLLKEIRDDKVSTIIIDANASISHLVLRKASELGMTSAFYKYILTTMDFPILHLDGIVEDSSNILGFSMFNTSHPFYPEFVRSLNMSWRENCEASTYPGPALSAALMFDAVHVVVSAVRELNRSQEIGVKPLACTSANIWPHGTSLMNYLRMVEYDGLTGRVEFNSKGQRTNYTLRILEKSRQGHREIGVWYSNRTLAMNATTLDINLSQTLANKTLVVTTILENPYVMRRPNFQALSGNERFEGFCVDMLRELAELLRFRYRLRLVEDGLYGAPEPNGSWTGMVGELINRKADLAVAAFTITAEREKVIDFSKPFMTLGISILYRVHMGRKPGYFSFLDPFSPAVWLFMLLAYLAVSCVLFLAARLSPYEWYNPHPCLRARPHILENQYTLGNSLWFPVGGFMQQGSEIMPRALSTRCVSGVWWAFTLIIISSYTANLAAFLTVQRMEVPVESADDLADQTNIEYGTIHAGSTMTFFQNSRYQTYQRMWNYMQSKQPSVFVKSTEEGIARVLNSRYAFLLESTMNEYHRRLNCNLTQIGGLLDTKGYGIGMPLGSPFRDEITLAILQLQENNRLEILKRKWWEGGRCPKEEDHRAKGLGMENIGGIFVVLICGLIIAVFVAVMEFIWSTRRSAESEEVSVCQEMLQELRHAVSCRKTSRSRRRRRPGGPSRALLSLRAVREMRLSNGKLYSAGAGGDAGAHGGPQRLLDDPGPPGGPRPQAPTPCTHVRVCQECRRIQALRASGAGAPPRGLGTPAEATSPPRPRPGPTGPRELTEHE
# UniProt P43144, sequence (whole entry, looked up): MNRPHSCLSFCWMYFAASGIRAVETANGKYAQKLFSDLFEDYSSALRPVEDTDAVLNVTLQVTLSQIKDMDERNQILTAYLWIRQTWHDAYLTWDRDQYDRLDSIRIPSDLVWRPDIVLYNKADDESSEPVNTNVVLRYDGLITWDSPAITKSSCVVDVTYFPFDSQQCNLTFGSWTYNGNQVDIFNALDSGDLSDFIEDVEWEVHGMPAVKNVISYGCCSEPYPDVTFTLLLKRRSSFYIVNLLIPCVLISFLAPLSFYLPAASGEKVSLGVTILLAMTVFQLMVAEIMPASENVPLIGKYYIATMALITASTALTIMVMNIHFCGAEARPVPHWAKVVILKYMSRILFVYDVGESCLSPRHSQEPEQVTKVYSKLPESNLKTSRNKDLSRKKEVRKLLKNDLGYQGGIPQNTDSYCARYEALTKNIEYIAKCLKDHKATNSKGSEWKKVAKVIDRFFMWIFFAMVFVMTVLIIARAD
# UniProt P42336, sequence (whole entry, unmodified, looked up): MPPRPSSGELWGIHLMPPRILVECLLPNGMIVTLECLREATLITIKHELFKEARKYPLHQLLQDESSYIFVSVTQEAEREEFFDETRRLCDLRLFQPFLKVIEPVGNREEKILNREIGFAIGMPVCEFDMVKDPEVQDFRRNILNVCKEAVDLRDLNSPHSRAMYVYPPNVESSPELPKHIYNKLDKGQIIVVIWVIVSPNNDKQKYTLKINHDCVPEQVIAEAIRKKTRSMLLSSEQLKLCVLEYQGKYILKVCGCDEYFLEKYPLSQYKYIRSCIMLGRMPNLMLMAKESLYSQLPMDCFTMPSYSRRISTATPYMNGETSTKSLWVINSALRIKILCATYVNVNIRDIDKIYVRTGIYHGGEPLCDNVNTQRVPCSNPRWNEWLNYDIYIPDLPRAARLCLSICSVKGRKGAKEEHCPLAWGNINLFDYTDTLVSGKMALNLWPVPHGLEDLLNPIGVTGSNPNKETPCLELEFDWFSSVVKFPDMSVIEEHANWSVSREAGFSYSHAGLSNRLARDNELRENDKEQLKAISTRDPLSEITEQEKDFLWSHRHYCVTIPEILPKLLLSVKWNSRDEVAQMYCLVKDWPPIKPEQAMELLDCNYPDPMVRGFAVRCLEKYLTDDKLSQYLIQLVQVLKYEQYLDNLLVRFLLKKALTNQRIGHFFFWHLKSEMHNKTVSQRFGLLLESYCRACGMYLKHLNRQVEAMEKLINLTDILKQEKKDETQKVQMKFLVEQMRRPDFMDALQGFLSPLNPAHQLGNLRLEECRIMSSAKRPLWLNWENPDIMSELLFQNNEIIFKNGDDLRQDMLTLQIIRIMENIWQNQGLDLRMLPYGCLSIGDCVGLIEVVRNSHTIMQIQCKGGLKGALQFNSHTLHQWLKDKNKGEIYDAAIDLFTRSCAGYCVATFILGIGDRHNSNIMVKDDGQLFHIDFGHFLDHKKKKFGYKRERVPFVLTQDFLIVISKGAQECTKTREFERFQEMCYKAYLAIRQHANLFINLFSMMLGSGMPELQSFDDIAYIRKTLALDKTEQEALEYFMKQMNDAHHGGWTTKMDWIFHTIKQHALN
# UniProt Q9JLB5, sequence (whole entry, looked up): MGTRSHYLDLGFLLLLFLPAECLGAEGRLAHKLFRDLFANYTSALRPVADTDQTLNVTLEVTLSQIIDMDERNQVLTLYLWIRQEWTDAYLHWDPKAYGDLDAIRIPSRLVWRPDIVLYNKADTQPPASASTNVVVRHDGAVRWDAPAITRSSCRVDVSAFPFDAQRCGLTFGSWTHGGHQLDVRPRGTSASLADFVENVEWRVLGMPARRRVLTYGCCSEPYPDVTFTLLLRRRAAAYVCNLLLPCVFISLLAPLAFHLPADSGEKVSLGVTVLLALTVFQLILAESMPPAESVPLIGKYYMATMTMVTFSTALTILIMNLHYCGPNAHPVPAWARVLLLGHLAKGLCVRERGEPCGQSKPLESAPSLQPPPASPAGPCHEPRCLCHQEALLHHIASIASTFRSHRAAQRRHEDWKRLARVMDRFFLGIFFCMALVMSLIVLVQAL

# Block 1
# Target: HLA class I histocompatibility antigen, A alpha chain, allele A*26:03 (Homo sapiens, UniProt P04439)
# Observed: peptide-MHC binding
# Form: peptide
Sequence,IC50
TTARPRPPM,1.57 µM
YQYIFLSFF,> 20 µM
RVYKNYDPR,> 20 µM
EEIRRIWRQ,> 20 µM
KNYPASLHK,> 20 µM
VLYCVHQHI,> 20 µM
REFEAQNVP,> 20 µM
DIKDTKEAL,> 20 µM
AVYLLDGLR,0.324 µM
QINELHHSK,> 20 µM
DILASIIDY,> 20 µM
YFENSDLNL,> 20 µM
KELENEYYF,> 20 µM
VFFKQWFEK,> 20 µM
ETALAIIRR,1.91 µM
ALYLLDGLR,1.01 µM
YMYAVSGAL,> 20 µM
RENQVAVVR,> 20 µM
EYYFRNEVF,> 20 µM
FLMRNAIQY,> 20 µM
YHRFGLYRL,> 20 µM
EYKKFIATF,> 20 µM
EFKQILTDF,> 20 µM
SLFTEQAFY,> 20 µM
FQYEHEQTF,> 20 µM

# Mixed results
SMILES,tested on,assay,test system,conditions,how to read,endpoint,value
COCCN(CCOC)N=O,Salmonella typhimurium,,TA100,with: rat liver S9,,Ames mutagenicity,positive
Cc1cccc2c1ccc1cc(C(C)C)ccc12,,,pooled human liver microsomes,0.25 µM,,metabolism rate,10.7 pmol/min/mg
CN1CCc2[nH]c3ccccc3c2CC1,"Nicotinic acetylcholine receptor alpha9/alpha10 (Rattus norvegicus, UniProt P43144+Q9JLB5)",inhibitor,,with: 100 µM acetylcholine,,IC50,5.1 ± 0.3 µM
CN[C@H]1[C@H]2O[C@@](C[C@H](N)C(=O)O)(C(=O)O)C[C@H]2OC[C@H]1O,"Glutamate receptor ionotropic, kainate 5 (Grik5, Rattus norvegicus, UniProt Q63273)",,,,,Ki,4.3 µM
O=C(O)C(F)(F)C(F)(F)C(F)(F)C(F)(F)C(F)(F)C(F)(F)C(F)(F)F,,,human liver spheroids,,,top non-cytotoxic concentration,20 µM
NC1CCCCC1N.O=C([O-])C(=O)[O-].[Pt+2] (centres unmarked),,item: free platinum,"mice, plasma ultrafiltrate","intravenous, 8.34 mg Pt/kg",,half-life alpha,6.72 min
CC[C@H]1OC(=O)[C@H](C)[C@@H](O[C@H]2C[C@@](C)(OC)[C@@H](O)[C@H](C)O2)[C@H](C)[C@@H](O[C@@H]2O[C@H](C)C[C@H](N(C)C)[C@H]2O)[C@](C)(OC)C[C@@H](C)C(=O)[C@H](C)[C@@H](O)[C@]1(C)O,,,human,with: ritonavir,baseline: with over without ritonavir,AUC(0-t) ratio,1.86
NCCc1ccc(Oc2ccc(O)cc2)c(I)c1,,"[3H]norepinephrine uptake, inhibitor",rat brain synaptosomes,10 µM,,inhibition,72.1%
CC(C)c1nc(CN(C)C(=O)N[C@H](C(=O)N[C@@H](Cc2ccccc2)C[C@H](O)[C@H](Cc2ccccc2)NC(=O)OCc2cncs2)C(C)C)cs1,,,human,100 mg twice daily,,colchicine AUC increase,296%
O=C1N[C@@H]2CCCC[C@H]2N[C@H]1c1c[nH]c2ncccc12,COLO 205,cytotoxicity,,,,IC50,> 100 µM
CC(C)(C)c1cc(C=C(C#N)C#N)cc(Br)c1O,neurons,"outcome: decreased, item: Akt and Erk",,concentration not given,,phosphorylation,decreased
CC(C)=CCCC(C)=CCCn1cc(CC(P(=O)([O-])[O-])P(=O)([O-])[O-])nn1.[Na+].[Na+].[Na+].[Na+],,protein geranylgeranylation,cells,,,lowest active concentration,50 nM
O=C(O)C(F)(F)C(F)(F)C(F)(F)C(F)(F)C(F)(F)C(F)(F)C(F)(F)F,,,human,,,t1/2,1.3 to 3.9 years
C[C@H](Cc1ccc(O)cc1)NC[C@H](O)c1cc(O)cc(O)c1,organic cation transporter 1 (human),"binding, frontal displacement chromatography",,with: [3H]-MPP+ marker,,Kd,12.6 µM
Nc1ncc(-c2nc(N3CCOCC3)nc(N3CCOCC3)n2)c(C(F)F)n1,"Phosphatidylinositol 4,5-bisphosphate 3-kinase catalytic subunit alpha isoform (PIK3CA, Homo sapiens, UniProt P42336, E545A)",KinomeScan competition binding,,10 µM,,remaining binding,0%
N.N.[Cl][Pt][Cl],HepaRG,"DNA damage, comet",,,,lowest effective concentration,2 µM
CNC(=O)c1c(N(C)N=O)ncn1C,Salmonella typhimurium,,"TA98, TA100, TA102, TA1535, TA1537","up to 1690 nmol per plate, with and without S9",,Ames test result,negative
CN1COCN(Cc2cnc(Cl)s2)/C1=N\[N+](=O)[O-],,,soil,"0.37 nominal, 0 days, Folsomia candida soil test",,recovery,84%
O=c1ccc2ncc(=O)n3c2n1C[C@H]3CN1CCC(NCc2cc3c(cn2)OCCC3)CC1,,,urine plus faeces,oral,baseline: dose,dose eliminated by metabolism,~13%
CC(C)NC[C@@H](O)c1ccc(O)c(O)c1,organic cation transporter 1 (human),"binding, frontal displacement chromatography",,with: [3H]-MPP+ marker,,Kd,180 µM
O=S(=O)(O)C(F)(F)C(F)(F)C(F)(F)C(F)(F)C(F)(F)C(F)(F)C(F)(F)C(F)(F)F,,,human liver spheroids,,,top non-cytotoxic concentration,20 µM
O=C(O)C(Br)Br,,,"rat, urine","oral gavage, 100 mg/kg, 48 h, includes endogenous amounts",,cumulative urinary excretion,128 ± 22.8 µg
CCN(N=O)C(N)=O,HepaRG,"DNA damage, comet",,,,lowest effective concentration,800 µM
COc1cc(Cc2cnc(N)nc2N)cc(OC)c1OC,OCT2,,,,,Ki,6.97 µM
CCN(CC)N=O,,"fingerprint mutation, item: T>C substitution","rat, liver",concentration not given,,mutation frequency,increased

# Excerpt of the above (mixed results):
SMILES,tested on,assay,test system,conditions,how to read,endpoint,value
NCCc1ccc(Oc2ccc(O)cc2)c(I)c1,,"[3H]norepinephrine uptake, inhibitor",rat brain synaptosomes,10 µM,,inhibition,72.1%
O=C(O)C(Br)Br,,,"rat, urine","oral gavage, 100 mg/kg, 48 h, includes endogenous amounts",,cumulative urinary excretion,128 ± 22.8 µg
CC(C)=CCCC(C)=CCCn1cc(CC(P(=O)([O-])[O-])P(=O)([O-])[O-])nn1.[Na+].[Na+].[Na+].[Na+],,protein geranylgeranylation,cells,,,lowest active concentration,50 nM
CN1COCN(Cc2cnc(Cl)s2)/C1=N\[N+](=O)[O-],,,soil,"0.37 nominal, 0 days, Folsomia candida soil test",,recovery,84%
NC1CCCCC1N.O=C([O-])C(=O)[O-].[Pt+2] (centres unmarked),,item: free platinum,"mice, plasma ultrafiltrate","intravenous, 8.34 mg Pt/kg",,half-life alpha,6.72 min
CC[C@H]1OC(=O)[C@H](C)[C@@H](O[C@H]2C[C@@](C)(OC)[C@@H](O)[C@H](C)O2)[C@H](C)[C@@H](O[C@@H]2O[C@H](C)C[C@H](N(C)C)[C@H]2O)[C@](C)(OC)C[C@@H](C)C(=O)[C@H](C)[C@@H](O)[C@]1(C)O,,,human,with: ritonavir,baseline: with over without ritonavir,AUC(0-t) ratio,1.86
N.N.[Cl][Pt][Cl],HepaRG,"DNA damage, comet",,,,lowest effective concentration,2 µM
O=C(O)C(F)(F)C(F)(F)C(F)(F)C(F)(F)C(F)(F)C(F)(F)C(F)(F)F,,,human,,,t1/2,1.3 to 3.9 years
